Values quoted from earlier work as cited in several papers.
Compare with care: the assays were run in different laboratories. ± gives the spread as reported.

Structure (SMILES) | target | observed | action | cell line | relative to | endpoint | result
CCCC/C=C/C(=O)N[C@@H](Cc1cc(F)cc(F)c1)C(=O)N[C@@H](COC(=O)[C@@H]1CCCN1C(C)=O)C(=O)OC | Bacillus subtilis ClpP | peptidase activity | activator | – | – | EC50 | ~6000 nM
CCOCC1C(c2ccc(Cl)c(Cl)c2)CC2CCC1N2C (stereo not drawn) | norepinephrine transporter | – | inhibitor | – | – | IC50 | 1.7 nM
CCCCCc1cc(O)c2c(c1)OC(C)(C)[C@@H]1CCC(C)=C[C@@H]21 | norepinephrine transporter | – | – | – | – | inhibitory concentration | < 1 µM
CCCCn1c(NCc2ccc(N3N=C(c4ccccc4)CC3c3ccccc3)cc2)nc2ccccc21 (stereo not drawn) | coxsackievirus B3 3C protease | – | inhibitor | – | – | IC50 | 5400 nM
COc1cccc2[nH]c(C(=O)N[C@@H](CC(C)C)C(=O)N[C@@H](C[C@@H]3CCNC3=O)C(=O)COP(=O)(O)O)cc12 | 3C-like protease | enzyme activity | inhibitor | – | – | IC50 | 3 ± 1 nM
CCCCCn1cc(C(=O)c2cccc3c2CC(C)(C)C3)c2ccccc21 | cannabinoid receptors | – | – | – | Ki CB1 over Ki CB2 | selectivity ratio | 1.1
O=C1CC(=O)N(c2ccccc2)c2cc(Cl)ccc2N1 | human GABAA receptor | – | – | Xenopus laevis oocytes | α2 over α1 | selectivity ratio | 1.33 ± 0.06
CCCCc1ccc(Oc2ccccc2)c(O)c1 | InhA | – | inhibitor | – | – | IC50 | 80 ± 15 nM
CC(=O)NC1C(O)CC(S(=O)(=O)O)OC1C(O)C(O)CO (stereo not drawn) | influenza virus neuraminidase | – | – | – | corresponding anomeric phosphonic acids | potency ratio | ≤ 40 fold

Excerpt of the above:
Structure (SMILES) | target | observed | action | cell line | relative to | endpoint | result
CCCC/C=C/C(=O)N[C@@H](Cc1cc(F)cc(F)c1)C(=O)N[C@@H](COC(=O)[C@@H]1CCCN1C(C)=O)C(=O)OC | Bacillus subtilis ClpP | peptidase activity | activator | – | – | EC50 | ~6000 nM
